Measurements pooled from the literature.
Each line is one published result; not all experiments were run side by side. Values joined by “and” are separate records of one study, mostly repeats; a detail may differ. ± gives the spread as reported. ≈ marks a conversion by molar mass, not a printed value.

The Kd of COc1cccc(OC)c1NS(=O)(=O)c1ccc(N/C=C2\C(=O)Nc3ccc4ncsc4c32)cc1 is reported as 3.6 µM (CDK2 (Homo sapiens, UniProt P24941); binding, thermal shift).
For Cc1ccc(CCC(=O)Nc2nnc(S(N)(=O)=O)s2)cc1, the MIC was 0.184 µM (≈ 0.0601 µg/mL) (Enterococcus faecium; NR-32094).
For COC(=O)[C@@H](CCSC)NCc1cc2ccccc2nc1SC, the growth was 95.1% (Pseudomonas aeruginosa; 2 µg/mL, without pentamidine; reference: control).
Under “log2 fold change”, Cn1cc(-c2ccc(-c3cncc(Cl)c3N3CCC4(CCNC4=O)CC3)cc2)cn1 is recorded as -1.09 (COLO 205; gene expression, microarray, refers to: CA9 mRNA; concentration not given, 6 h; reference: untreated cells).
CC(C)C[C@H](NC(=O)C[C@H](O)[C@H](CC(C)C)NC(=O)[C@H](Cc1c[nH]cn1)NC(=O)CNC(=O)[C@@H](NC(=O)[C@H](C)NC(=O)[C@H](Cc1c[nH]c2ccccc12)NC(=O)[C@H](CCC(N)=O)NC(=O)[C@@H](Cc1ccccc1)NC(=O)COCCOCCNC(=O)CCC(C(=O)O)N1CCN(CC(=O)O)CCN(CC(=O)O)CCN(CC(=O)O)CC1)C(C)C)C(N)=O (stereo partly shown) [lutetium-177 labelled] has a tissue uptake of 5 ± 1 %ID/g (BALB/c nu/nu mice, pancreas; intravenous, 250 pmol, 1 h, with: PA 300 µg).
C=C[C@]1(C)C[C@@H](OC(=O)CSCCN(CC)CC)[C@]2(C)[C@H](C)CC[C@]3(CCC(=O)[C@H]32)[C@@H](C)[C@@H]1O: “reduction in lung mycoplasma load” 2.35 log10 CFU/mL and 2.44 log10 CFU/mL and 4.13 log10 CFU/mL and 2.79 log10 CFU/mL and 2.4 log10 CFU/mL and 2.39 log10 CFU/mL (Mycoplasma gallisepticum; infected chickens, lung; intramuscular, 40 mg/kg; reference: 0 h).
With O=C(N1CCc2ccccc21)n1ccnn1 the hypocotyl length was 2.26 mm (Arabidopsis thaliana; wild type, seedlings; 30 µM, continuous red light, with: 0.3 µM karrikin KAR2).
For CC(=O)NC[C@H]1CN(c2ccc(N3CCOCC3)c(F)c2)C(=O)O1, the MIC50 was 1 µg/mL (≈ 2.96 µM) (Enterococcus faecium; agar dilution; vancomycin-susceptible, 64 isolates).
With CN1CCN(C(=O)CN(C)S(=O)(=O)c2ccc3ccccc3c2)CC1 the Kd was over 100 µM (Cyclin-dependent kinase 2, with cyclin A (CDK2, Homo sapiens, UniProt P24941)).
For CC(C)n1ncc2c(C(=O)NCC3(C)CNC3)cc(C3CC3)nc21, the cell protection was 99% and 96.9% and 95.9% (Enterovirus D68; cytopathic effect; RD, US/KY/14-18953; 1500 nM).
C[C@@H](O)[C@H]1C(=O)N2C(C(=O)O)=C(SCCN=CN)C[C@H]12 gave a bacterial load of 3.6 log CFU and 3.98 log CFU and 3.48 log CFU and 3.37 log CFU and 4.34 log CFU and 3 log CFU (Acinetobacter baumannii; 0403, female ICR mice, peritonitis, peritoneal fluid; dose not given).
CC(=O)NC[C@H]1CN(c2ccc(N3CCOCC3)c(F)c2)C(=O)O1 gave an MIC of 2.96 µM (≈ 0.999 µg/mL) (Enterococcus faecium; NR-31912).
For CN[C@H](CC(C)C)C(=O)N[C@H]1C(=O)N[C@@H](CC(N)=O)C(=O)N[C@H]2C(=O)N[C@H]3C(=O)N[C@H](C(=O)N[C@H](C(=O)O)c4cc(O)cc(O)c4-c4cc3ccc4O)[C@H](O)c3ccc(c(Cl)c3)Oc3cc2cc(c3O[C@@H]2O[C@H](CO)[C@@H](O)[C@H](O)[C@H]2O[C@H]2C[C@](C)(N)[C@H](O)[C@H](C)O2)Oc2ccc(cc2Cl)[C@H]1O, the MIC50 was 0.5 µg/mL (≈ 0.345 µM) (Streptococcus agalactiae; 25 clinical isolates).

A few entries again:
C=C[C@]1(C)C[C@@H](OC(=O)CSCCN(CC)CC)[C@]2(C)[C@H](C)CC[C@]3(CCC(=O)[C@H]32)[C@@H](C)[C@@H]1O: “reduction in lung mycoplasma load” 2.35 log10 CFU/mL and 2.44 log10 CFU/mL and 4.13 log10 CFU/mL and 2.79 log10 CFU/mL and 2.4 log10 CFU/mL and 2.39 log10 CFU/mL (Mycoplasma gallisepticum; infected chickens, lung; intramuscular, 40 mg/kg; reference: 0 h).
